Results collected from several papers.
Each line is one published result; not all experiments were run side by side. Values joined by “and” are separate records of one study, mostly repeats; a detail may differ. ± gives the spread as reported. Converted amounts (≈) assume the structure as drawn.
Chain of UniProt Q7M759 (whole entry, looked up): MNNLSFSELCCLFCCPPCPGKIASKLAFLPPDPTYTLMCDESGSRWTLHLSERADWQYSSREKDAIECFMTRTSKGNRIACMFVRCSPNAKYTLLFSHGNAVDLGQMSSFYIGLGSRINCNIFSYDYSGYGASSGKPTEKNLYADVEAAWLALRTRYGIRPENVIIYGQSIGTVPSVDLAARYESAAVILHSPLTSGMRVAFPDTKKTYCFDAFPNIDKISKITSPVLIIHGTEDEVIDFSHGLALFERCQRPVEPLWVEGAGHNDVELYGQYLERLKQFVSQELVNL
Chain of UniProt Q9UM07 (whole entry, looked up): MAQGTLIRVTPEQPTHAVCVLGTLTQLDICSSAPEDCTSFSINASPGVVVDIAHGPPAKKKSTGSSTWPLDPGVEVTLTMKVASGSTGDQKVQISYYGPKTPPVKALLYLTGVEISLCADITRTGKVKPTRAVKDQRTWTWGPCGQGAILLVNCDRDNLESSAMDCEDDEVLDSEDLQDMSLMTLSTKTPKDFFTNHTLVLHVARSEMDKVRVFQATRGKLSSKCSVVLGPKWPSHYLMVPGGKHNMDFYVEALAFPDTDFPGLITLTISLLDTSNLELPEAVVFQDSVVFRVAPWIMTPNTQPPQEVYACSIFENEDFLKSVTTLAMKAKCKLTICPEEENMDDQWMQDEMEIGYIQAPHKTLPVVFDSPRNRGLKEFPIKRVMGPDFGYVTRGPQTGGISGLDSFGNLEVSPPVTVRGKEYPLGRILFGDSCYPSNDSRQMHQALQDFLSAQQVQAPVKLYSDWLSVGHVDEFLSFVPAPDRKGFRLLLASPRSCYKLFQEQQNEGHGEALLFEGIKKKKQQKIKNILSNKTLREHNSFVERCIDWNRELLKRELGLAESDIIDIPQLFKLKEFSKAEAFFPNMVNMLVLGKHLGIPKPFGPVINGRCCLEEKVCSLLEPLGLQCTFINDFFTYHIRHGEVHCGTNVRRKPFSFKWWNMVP
Chain of UniProt Q8TF76 (whole entry, looked up): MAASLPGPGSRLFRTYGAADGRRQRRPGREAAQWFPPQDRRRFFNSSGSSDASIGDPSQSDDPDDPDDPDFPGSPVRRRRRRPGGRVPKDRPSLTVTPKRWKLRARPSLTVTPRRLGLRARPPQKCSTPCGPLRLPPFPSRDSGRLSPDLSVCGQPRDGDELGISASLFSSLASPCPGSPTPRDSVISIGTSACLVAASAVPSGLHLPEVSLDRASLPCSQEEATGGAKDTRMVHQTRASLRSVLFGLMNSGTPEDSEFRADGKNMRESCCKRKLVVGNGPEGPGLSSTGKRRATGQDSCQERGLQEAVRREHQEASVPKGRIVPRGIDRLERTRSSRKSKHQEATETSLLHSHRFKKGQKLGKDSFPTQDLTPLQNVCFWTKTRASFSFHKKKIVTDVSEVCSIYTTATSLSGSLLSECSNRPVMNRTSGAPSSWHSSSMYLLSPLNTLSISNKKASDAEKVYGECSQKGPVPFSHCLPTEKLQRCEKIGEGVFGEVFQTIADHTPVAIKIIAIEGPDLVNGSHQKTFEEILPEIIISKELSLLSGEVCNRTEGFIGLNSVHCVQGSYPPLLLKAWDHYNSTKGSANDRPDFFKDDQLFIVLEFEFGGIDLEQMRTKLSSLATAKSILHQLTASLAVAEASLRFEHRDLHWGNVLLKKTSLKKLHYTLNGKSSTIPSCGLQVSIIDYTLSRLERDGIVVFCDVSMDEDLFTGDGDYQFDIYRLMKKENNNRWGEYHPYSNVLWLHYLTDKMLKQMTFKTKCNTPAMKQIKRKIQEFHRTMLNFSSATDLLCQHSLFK
Chain of UniProt O15075 (whole entry, looked up): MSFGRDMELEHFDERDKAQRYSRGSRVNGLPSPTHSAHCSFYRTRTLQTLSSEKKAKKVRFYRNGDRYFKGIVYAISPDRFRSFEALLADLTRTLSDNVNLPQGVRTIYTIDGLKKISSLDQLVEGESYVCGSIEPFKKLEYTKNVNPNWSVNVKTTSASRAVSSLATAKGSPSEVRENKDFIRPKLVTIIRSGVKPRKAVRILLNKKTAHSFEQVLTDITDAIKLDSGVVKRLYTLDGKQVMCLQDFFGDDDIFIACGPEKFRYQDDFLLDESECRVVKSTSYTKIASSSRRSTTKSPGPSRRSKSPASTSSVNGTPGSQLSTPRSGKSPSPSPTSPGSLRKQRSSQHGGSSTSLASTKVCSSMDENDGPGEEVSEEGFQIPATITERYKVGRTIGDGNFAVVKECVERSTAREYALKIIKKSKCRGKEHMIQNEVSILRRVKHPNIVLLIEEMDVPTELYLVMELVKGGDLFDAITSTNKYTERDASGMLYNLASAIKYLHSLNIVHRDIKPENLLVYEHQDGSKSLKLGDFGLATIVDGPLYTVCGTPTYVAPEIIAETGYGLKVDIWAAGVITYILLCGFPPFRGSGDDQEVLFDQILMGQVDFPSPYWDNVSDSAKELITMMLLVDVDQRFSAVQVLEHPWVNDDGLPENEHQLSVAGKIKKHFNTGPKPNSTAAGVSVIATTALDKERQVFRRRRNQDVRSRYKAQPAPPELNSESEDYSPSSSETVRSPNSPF
Chain of UniProt P22612 (whole entry, looked up): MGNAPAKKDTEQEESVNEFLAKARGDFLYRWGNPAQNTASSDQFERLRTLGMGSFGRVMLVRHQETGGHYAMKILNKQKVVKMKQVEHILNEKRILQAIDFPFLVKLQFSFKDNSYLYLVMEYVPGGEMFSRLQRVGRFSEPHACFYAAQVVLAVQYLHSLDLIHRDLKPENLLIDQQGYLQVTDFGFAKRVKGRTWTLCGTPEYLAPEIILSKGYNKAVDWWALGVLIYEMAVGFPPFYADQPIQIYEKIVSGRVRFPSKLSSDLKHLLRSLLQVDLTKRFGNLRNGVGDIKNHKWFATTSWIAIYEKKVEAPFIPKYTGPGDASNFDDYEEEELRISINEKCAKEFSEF
Chain of UniProt P08069 (whole entry, looked up): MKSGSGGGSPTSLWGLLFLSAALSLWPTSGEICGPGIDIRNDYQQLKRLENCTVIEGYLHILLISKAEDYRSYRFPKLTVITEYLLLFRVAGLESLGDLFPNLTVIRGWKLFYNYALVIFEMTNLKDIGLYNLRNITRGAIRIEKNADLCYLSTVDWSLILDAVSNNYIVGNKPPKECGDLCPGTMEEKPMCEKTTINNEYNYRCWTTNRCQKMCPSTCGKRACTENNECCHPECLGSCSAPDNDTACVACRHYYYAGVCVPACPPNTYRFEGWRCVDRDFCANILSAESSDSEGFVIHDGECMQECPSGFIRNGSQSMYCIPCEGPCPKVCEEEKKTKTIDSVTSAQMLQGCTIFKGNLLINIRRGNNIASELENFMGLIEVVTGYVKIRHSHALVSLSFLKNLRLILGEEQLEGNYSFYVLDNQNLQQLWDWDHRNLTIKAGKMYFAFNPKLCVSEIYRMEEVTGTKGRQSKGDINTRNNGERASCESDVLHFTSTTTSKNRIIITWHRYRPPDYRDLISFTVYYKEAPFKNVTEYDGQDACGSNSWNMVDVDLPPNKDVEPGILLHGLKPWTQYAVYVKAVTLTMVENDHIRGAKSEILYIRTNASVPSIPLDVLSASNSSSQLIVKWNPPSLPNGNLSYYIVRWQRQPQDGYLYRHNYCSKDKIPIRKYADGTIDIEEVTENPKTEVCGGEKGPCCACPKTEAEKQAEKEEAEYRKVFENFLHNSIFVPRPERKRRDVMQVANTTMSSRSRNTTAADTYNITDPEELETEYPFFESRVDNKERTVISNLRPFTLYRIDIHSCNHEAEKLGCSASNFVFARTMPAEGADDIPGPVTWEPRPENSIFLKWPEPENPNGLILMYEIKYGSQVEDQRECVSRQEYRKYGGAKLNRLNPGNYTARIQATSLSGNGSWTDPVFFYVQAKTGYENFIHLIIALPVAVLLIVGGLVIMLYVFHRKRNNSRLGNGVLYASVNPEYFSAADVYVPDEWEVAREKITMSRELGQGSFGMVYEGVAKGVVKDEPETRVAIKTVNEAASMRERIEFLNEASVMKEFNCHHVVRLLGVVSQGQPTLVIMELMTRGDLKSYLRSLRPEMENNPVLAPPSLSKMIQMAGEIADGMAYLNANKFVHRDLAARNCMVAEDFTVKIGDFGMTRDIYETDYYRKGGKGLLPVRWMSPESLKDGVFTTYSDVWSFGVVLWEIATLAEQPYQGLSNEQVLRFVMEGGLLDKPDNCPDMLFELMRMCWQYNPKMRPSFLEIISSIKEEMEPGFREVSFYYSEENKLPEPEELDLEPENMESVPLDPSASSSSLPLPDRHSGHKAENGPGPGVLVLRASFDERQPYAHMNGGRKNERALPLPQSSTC
Chain of UniProt P21554 (whole entry, unmodified, looked up): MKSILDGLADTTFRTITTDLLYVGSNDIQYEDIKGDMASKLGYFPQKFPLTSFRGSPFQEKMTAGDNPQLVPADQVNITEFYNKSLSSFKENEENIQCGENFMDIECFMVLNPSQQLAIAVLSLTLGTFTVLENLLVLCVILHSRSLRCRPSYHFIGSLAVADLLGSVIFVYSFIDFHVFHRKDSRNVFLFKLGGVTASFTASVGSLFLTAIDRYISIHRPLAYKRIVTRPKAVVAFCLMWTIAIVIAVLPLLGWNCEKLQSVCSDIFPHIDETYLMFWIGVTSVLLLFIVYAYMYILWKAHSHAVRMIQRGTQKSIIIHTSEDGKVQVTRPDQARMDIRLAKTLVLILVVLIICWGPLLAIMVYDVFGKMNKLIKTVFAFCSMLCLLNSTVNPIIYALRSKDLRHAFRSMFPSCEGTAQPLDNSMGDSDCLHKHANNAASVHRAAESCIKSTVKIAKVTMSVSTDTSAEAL
Chain of UniProt P9WKE1 (whole entry, looked up): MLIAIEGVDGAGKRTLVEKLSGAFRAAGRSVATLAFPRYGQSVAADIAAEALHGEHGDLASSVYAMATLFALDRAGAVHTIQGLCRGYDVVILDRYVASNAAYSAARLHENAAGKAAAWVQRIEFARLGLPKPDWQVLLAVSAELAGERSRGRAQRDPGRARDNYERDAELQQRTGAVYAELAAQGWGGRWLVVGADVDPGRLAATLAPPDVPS

Compound	target or system	assay	system	setting	scale	endpoint	result
CN(C)CC#CCC(O)(c1ccccc1)C1CCCC1.Cl (stereo not drawn)	Trypanosoma cruzi	reporter mRNA translation, inhibitor, item: capped polyadenylated Renilla luciferase mRNA	cell-free extract	concentration not given	reference: control RNA	relative translation	102%
Nc1ccc(/C=C/C(=O)N2CCc3c(oc4c(-c5ccc(F)cc5)cc(-c5ccc(C(=O)N6CCC(F)(F)CC6)cn5)cc34)C2)cn1	DCLK1 (Homo sapiens, UniProt O15075)	binding, competition with immobilised ligand	–	1 µM	–	remaining binding	93%
CC[C@H](C)[C@H](NC(=O)[C@H](CO)NC(=O)[C@H](Cc1ccc(O)cc1)NC(=O)[C@H](Cc1ccc(O)cc1)NC(=O)[C@H](CC(N)=O)NC(=O)CNC(=O)[C@H](CO)NC(=O)[C@H](Cc1ccc(O)cc1)NC(=O)[C@H](CO)NC(=O)[C@H](CO)NC(=O)[C@H](CC(N)=O)NC(=O)COCCOCCNC(=O)CN1CCN(CC(=O)O)CCN(CC(=O)O)CCN(CC(=O)O)CC1)C(=O)N[C@@H](CC(C)C)C(N)=O [copper-64 labelled]	–	dynamic PET	KPC mouse Ptf1a-CreER tdTomato, pancreas	intravenous, dose not given, 1.6 min, 84 d after tamoxifen	–	tissue uptake	15 %ID/mL
COc1ccccc1-c1n[nH]c2nc(N[C@H]3CC[C@H](NS(=O)(=O)CC(C)C)CC3)ncc12	–	bead binding, competition bead pull-down, item: LINJ.22.0180	Leishmania donovani extract	10 µM	reference: vehicle	relative abundance	1.73
N[C@H](C(=O)N1CCCC1)C1CCN(c2nccc3c(-c4ncc(Cl)cc4Cl)cccc23)CC1	PADI4 (Homo sapiens, UniProt Q9UM07)	thermal shift	–	3.004 µM	–	melting temperature	62.1 °C and 61.8 °C
CC(C)CC(C(=O)N1CC2(CC1C#N)C(=O)Nc1ccccc12)N(C)C(=O)c1cc2c(F)cc(F)c(F)c2[nH]1 (stereo not drawn)	Caspase-1 (CASP1, Homo sapiens, UniProt P29466)	enzyme activity, inhibitor	–	–	–	IC50	> 100 µM
CN(C)[C@H]1C[C@@]23CC[C@@]4(O2)C(=CC[C@]2(C)[C@@H](c5ccc6ccncc6c5)CC[C@H]24)C=C3[C@@H](O)[C@@H]1O	Inositol-tetrakisphosphate 1-kinase (Homo sapiens, UniProt Q13572)	ATP probe labelling, inhibitor, KiNativ profiling	–	0.1 µM	–	inhibition	5.3%
CS(C)(=O)=Nc1ccc(-c2ccc(-c3nc4cc(O[C@@H]5CO[C@H]6[C@@H]5OC[C@H]6O)[nH]c4cc3F)cc2)cc1	Insulin-like growth factor 1 receptor, phosphorylated (IGF1R, Homo sapiens, UniProt P08069)	enzyme activity, inhibitor	–	10 µM	–	inhibition	-16%
O=C1NC2(CC2)COc2ncc(F)cc2[C@H]2COCCN2c2ccn3ncc1c3n2	–	–	Sprague-Dawley rat, female, serum	oral, 10 mg/kg/day, end of treatment, 4-week subacute toxicity	–	serum LDH activity	762 ± 189 U/L
Cc1ccsc1C(=O)C1CCCN(Cc2cnc(N3CCCC3)s2)C1 (stereo not drawn)	Trypanosoma cruzi	reporter mRNA translation, inhibitor, item: Renilla luciferase mRNA	cell-free extract	concentration not given, test 1	reference: positive over negative control	translation activity	106% and 126%
CC(C)CC(O)(CC(C)C)c1cn(C(=O)N2CCCC2)nn1	Alpha/beta hydrolase domain-containing protein 17B (Abhd17b, Mus musculus, UniProt Q7M759)	probe labelling, inhibitor, competitive ABPP-SILAC, item: Fam108b1	mouse T cells	concentration not given, 4 h, in situ, single peptide	reference: treated over DMSO, lower = more inhibition	SILAC ratio	1.18 and 1.35 and 1.23 and 1.22 and 1.3
CC(C)(C)C(=O)OCOP(=O)(OCOC(=O)C(C)(C)C)C1CCCN(O)C1=O (stereo not drawn)	786-0	cell growth	–	–	–	TGI	18.1 µM
Cc1ccc2c(C(C[N+](=O)[O-])c3cccs3)c(-c3ccccc3)[nH]c2c1 (stereo not drawn)	CNR1 (Homo sapiens, UniProt P21554, I245A)	Gαi1-γ2 dissociation, BRET	–	–	–	Emax	43.1 ± 0.46%
CCOc1ccc(CNCCc2ccc3c(c2)OCO3)cc1	Trypanosoma cruzi	reporter mRNA translation, inhibitor, item: Renilla luciferase mRNA	cell-free extract	concentration not given, test 2	reference: positive over negative control	translation activity	99%
Cc1sc2c(c1C)C(c1ccc(Cl)cc1)=NC(CC(=O)OC(C)(C)C)c1nnc(C)n1-2 (stereo not drawn)	HTR5A (Homo sapiens, UniProt P47898)	ligand displacement, radioligand	–	1 µM	–	inhibition	-7%
COc1ccccc1-c1n[nH]c2nc(NC3CCN(C(=O)Cc4ccc(F)cc4F)CC3)ncc12	–	bead binding, competition bead pull-down, item: LINJ.35.3390	Leishmania donovani extract	10 µM	reference: vehicle	relative abundance	0.96
CCN(Cc1ccc2nc(C)[nH]c(=O)c2c1)c1ccc(C(=O)NC(C(=O)O)C(C)C)cc1 (stereo not drawn)	Mycobacterium tuberculosis	bacterial growth, inhibitor	H37Rv pptT conditional knockdown	PptT depleted, ATc withheld	–	MIC50	96 µM (≈ 41.9 µg/mL)
Cc1cc(Oc2nc(N3CC[C@@H](c4ccncc4)C3)ncc2F)[nH]n1	A-431	cell proliferation	–	–	–	IC50	61.7 µM
O=C1NC(=O)c2c1c1cc(F)c[n+]3c1c1c2c2cc(O)ccc2[n]1[Ru-4]312([N]=C=S)[S+]3CC[S+]1CC[S+]2CC3 (stereo not drawn)	HASPIN (Homo sapiens, UniProt Q8TF76)	enzyme activity	–	100 nM, human enzyme, with: 10 µM ATP	reference: untreated	remaining activity	71%
CCOC(=O)C1=C(C)NC(=NN=C2C(=O)Nc3ccc(C)cc32)NC1c1ccc(F)cc1 (stereo not drawn)	Thymidylate kinase (tmk, Mycobacterium tuberculosis, UniProt P9WKE1)	enzyme activity, inhibitor, absorbance	–	1 µg/mL	–	inhibition	69.6%
CC(C)[C@H]1NC(=O)C[C@H]2/C=C/CCSSC[C@@H](NC1=O)C(=O)N[C@H](Cc1cccc3ccccc13)C(=O)NCC(=O)O2	PRKACG (Homo sapiens, UniProt P22612)	enzyme activity, inhibitor	–	10 µM	–	inhibition	-0.2%

For quick reference, copied from above:
Compound	target or system	assay	system	setting	scale	endpoint	result
COc1ccccc1-c1n[nH]c2nc(NC3CCN(C(=O)Cc4ccc(F)cc4F)CC3)ncc12	–	bead binding, competition bead pull-down, item: LINJ.35.3390	Leishmania donovani extract	10 µM	reference: vehicle	relative abundance	0.96
